Assay results from different studies.
Parts stem from different laboratories: compare values within a part only.

Study 1 — method: protein binding microarray; form: double-stranded DNA, one strand shown; matrix: in vitro; concentration: not given; relative to: not given; reading: higher = stronger binding
Target: Histone acetyltransferase KAT6A, winged helix 2, GST fusion (KAT6A, Homo sapiens, UniProt Q92794, residues 85-181)
Setting: 8-mer, flanks averaged, mean of 2 arrays, mostly near background
Residues (chain): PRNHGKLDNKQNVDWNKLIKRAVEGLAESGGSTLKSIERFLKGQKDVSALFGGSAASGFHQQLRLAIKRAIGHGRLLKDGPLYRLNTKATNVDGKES
Oligonucleotide | E-score
ACTTGACG | -0.113
ACCGGACT | 0.0398
CAAGCTCC | 0.0337
GGCTCTAA | 0.0518
AGGATGCG | -0.0591
GCCGCGGA | 0.22
CCTGGTCG | 0.117
CACTTATG | -0.0774
TATGGGAA | -0.0324
ACTCCGCC | 0.0734
AGTACTCC | -0.048
ATTTAATA | 0.255
CCACTAGG | 0.012
AATCCTCT | -0.114
ACGCGTTC | 0.0665
ACTGGGTA | -0.00647
TCGATCCA | -0.155
CTTCGCTC | 0.201
GCAGGCGA | 0.103

Study 2 — method: RNA Bind-n-Seq; form: RNA; matrix: in vitro; concentration: 365 nM; relative to: no-protein control; reading: higher = stronger binding
Target: RNA binding protein fox-1 homolog 2, RRM domain, GST-SBP tag (RBFOX2, Homo sapiens, UniProt O43251-10, residues 100-194)
Setting: natural RNA segment, single round, ends assumed
Constant ends, left off below: GGGAGUUCUACAGUCCGACGAUC … UGGAAUUCUCGGGUGCCAA
Construct (chain): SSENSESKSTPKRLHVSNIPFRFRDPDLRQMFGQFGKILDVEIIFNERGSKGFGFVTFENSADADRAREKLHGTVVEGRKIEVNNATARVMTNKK
Oligonucleotide | RBNS enrichment (R)
AUAGAAUUUCUCCAUUGAUGAAUCUCUAGUAUGUGUGUAUACUUUAUUUACCCAUACGUAUAUUUUAUGACCAUGAGCUAAGUUGUUAUUUCUUUCAUUCAUAUCCCUGC | 0.835
GCCUUCGCUUUAUUUUUUUAUAACUAUCAACUGCCAUCAUGUUUUGUAAUUUGGGGAUCUUGAUUUCACCGUUGUUGGUGAAGGAAAUUUUCAAUAAAUAUGCAUAACCU | 0.467
GGCUAAUUUUGUAUUUUUAGUAGAGACGGGGUUUCUCCAUGUUGGUAAGGCUGAUCUCAAACUCCCAACCUCAGGUGAUCUGCCUGCCUCGGCCUCCCAAAGUGCUGGGA | 1.18
CUUGUCGUGCUUCAAUGCAUGCCAUUUGUCACUUACCAUACUUCACCAUGGCCGAGCUUCAUGUCACAUGGCCUGGCGAUUGUGCUUGUUCACACUGGGGCCAGGAUUUU | 0.47
CUGCCCGAGAAUCAGCUUGAAUUCCCACUUCUGCUUGUUGGCCCCAGCUCUGGCUUUGCAUCCUUACUCUCAUGCCCAGUUGCUUAGAGAGAACGGGAGAACAGGUCUAA | 1.11
AGUACUACCUUGCCAGGGACUCAGUCAGGGGACUUUGGGAGAAAGACUUGAUAGCCAGGCUGACUGGGUUCUAGGCAGGCCCUCUGGAAAGGUAGCUCACCUAACAAAGC | 0.196
UACCAUUUCAUGGUGGUCGUUGGGUCCGCCUAAAGGAUUUGAGCGUUUGCCAUUGCAAGCAUAGUGCUGUGUCAUCCUGGUCCAUGUAGGACUGGUGCUAACCACCUGCC | 0.221
UUUCAGUACAAAUGAAAGAAAAGUGGUUUUAAUCAGUGAUUUAGUGGACCUUGAGCAACUGUGCACGCUUCACUCUAAUAGCAUGGUUUGGCCAGUGUAUUAGCUCUCAA | 0.709

Study 3 — method: RNA Bind-n-Seq; form: RNA; matrix: in vitro; concentration: not given; setting: RNA with constant flanks, ends assumed; relative to: input RNA pool; reading: higher = stronger binding
Target: RING finger protein unkempt homolog, zinc fingers 1-6, GST-SBP tag (UNK, Homo sapiens, UniProt Q9C0B0, residues 30-357)
UniProt Q9C0B0, sequence (30-357, looked up): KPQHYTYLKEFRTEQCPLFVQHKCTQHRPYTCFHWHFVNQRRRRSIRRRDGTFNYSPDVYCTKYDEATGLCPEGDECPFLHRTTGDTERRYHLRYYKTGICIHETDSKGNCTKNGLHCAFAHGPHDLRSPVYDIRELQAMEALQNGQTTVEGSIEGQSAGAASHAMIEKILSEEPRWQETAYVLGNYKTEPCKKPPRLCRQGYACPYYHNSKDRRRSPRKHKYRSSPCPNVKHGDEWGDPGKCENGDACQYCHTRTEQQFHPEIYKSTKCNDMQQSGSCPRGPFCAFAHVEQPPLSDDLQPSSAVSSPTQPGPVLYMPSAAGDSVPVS
Constant ends, left off below: GGGAGUUCUACAGUCCGACGAUC … CAACAGAGGAUUGAGCAUCA
Oligonucleotide | bound/input enrichment [ratio]
GAAACAAGAUGGCGGGUUCGUGGUGAGAAGCCGUCAAGCAGGAGUAGAAAUUGGUAUGCUCCGAAGCAGAUUCUAAAAGCAGUUUCUCUUCAGAACAUCUUUUUUCAUACCACUUGAUAA | 0.211
AUGGAGGCGUCCAGCGAGCCGCCGCUGGAUGCUAAGUCCGAUGUCACCAACCAGCUUGCCGAUUUUCAGUGGAAACUGGGUAUGGCUGUGAGCUCAGACACUUGCAGAUCUCUUAAGUAU | 0.0771
AUGAACUUGAGGUUCCUUGAAUUUGCGAGGUGUGGAAAGACUACUUGACUGUCUGUCCAGCUCCGCUGUUAUGUUUUUUGGGGGGGAGGGGUGAUGUGUUAAGAGUGAGUGGUACACUGG | 0.444
AAUCCUCAACUUGUUCUAGCUUGUGAUCCCUCAAAGUUGGGUCAUACGUUAGUGCCCGAUACCCGAAAUUUUCACUUUUCCACUGAUCAGAGAGACAGACAUUAAAAACAAAAAUAGAAG | 0.947
AAGCUUGGAGAAGAACCAGGGGAUGAGGUUGAUGUUCCAAAGGAUGAGCUUAGUACCGAUUCCGGAAUGUUAUUUAUCGGUGGAACCAAACCUCCCUAGAGAGUACUGUGAAAGCUGGCA | 0.252
GAAGAUGAUGAAGAAUCUGGACGAUUACGUUUCAAAACUGAAAGGAAAGAAGGAACAAUUAUCCGGCUCUCAGAUGUAACUAGAGAGAGAAGGAACAUUCCAGAAACUUUGGAGCUUUCA | 0.201
GACCAAACCCAGAACUUUUUUUUUUUUUUUUUUGGUUUUUCAAGACAAGAUUUCUCUGUGCCGCUCUGGCUGUCCUGGAACCCACUGUGUAUAUGACUAGGCUGAACUCCAACUCAGAGA | 1.32
GAUAAAAUGAUUGAUGUAGCUCUUUACAUUGGGAAAGGAGCUUGACAUGCUUAGCUUCCUACCGAAGUCAGGACCGGCUGGUGUGCGGAGUGUUUCAGUUCAGAGCCUAAACUGAAAGGG | 0.215

Study 4 — method: competition protein-binding microarray; form: double-stranded DNA, one strand shown; matrix: in vitro; concentration: 2 µM; added: Cbf1 competitor, 0.05 µM; reading: higher = stronger binding; constant ends, left off below: … GTCTTGATTCGCTTGACGCTGCTG
Target: Phosphate system positive regulatory protein PHO4, full length, GST-tagged (PHO4, Saccharomyces cerevisiae, UniProt P07270, residues 1-312)
Setting: whole 60-bp probe, lowest competitor level
Residues (chain): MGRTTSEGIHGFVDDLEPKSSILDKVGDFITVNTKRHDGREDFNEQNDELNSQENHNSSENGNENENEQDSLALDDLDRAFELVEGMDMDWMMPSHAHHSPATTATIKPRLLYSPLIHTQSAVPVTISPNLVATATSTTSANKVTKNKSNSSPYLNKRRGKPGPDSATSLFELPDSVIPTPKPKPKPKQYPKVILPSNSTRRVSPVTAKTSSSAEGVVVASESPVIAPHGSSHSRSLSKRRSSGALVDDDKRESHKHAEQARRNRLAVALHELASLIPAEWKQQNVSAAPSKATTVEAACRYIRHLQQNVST
Oligonucleotide | fluorescence intensity [a.u.]
TTTTCTTTCGATTAGCACGCACACACATCACATAGA | 11900
CTTTCCCGATCTTTTCACGTGTCGTTAGCACATTTG | 14400
TTATCTCAATGGGTTTACGTGGGTATAGATTACGCT | 5430
CTTTCCCGATCTTGTCACAGCACTTTAGCACATTTG | 4250
AAAGGTTATATCCATCACGTGACGGATCTGTAAAAG | 13900
GGTCAAAAGAGAGGAGATGTGACGGGAGCCAAATTG | 4240
AAATTACTAAGTTGCGGCGTGGGTGACGCCGTATGA | 7750
TGCCTTACTCGGTATCACATGGAAAAGACCCCCGGC | 6410
AAAGCGGTAATTTGGGTGGTGGGTGCAGATATCTAT | 4320
TCTGTGGGTAAATGTCTCGTGCAAAAAGACAGGCTA | 7670
GTCTTGTCTCATTGGAGCGTGGGTGTCCCCACTTCA | 7970
GCTGACGCTATCCGTCACGTGGTGATGGCAGCTGCT | 14400
CAAACTCTCCGAGGACACGTGCCGAACAAAGAATGT | 20200
AAAGCGGTAATTTGTCACCATACTTCACATATCTAT | 3860
CTTTCCCGATCTTTTCACGTGTTCTTAGCACATTTG | 12500
AAGAGTATTATACAGCACGCAGCAGAACAGTTATAC | 9180
TCTATGGCATGTAGAGTCGTGATGGCTGCTGTACGC | 5500
GTAACGATTTACCATCACGTGGATTGTGATATAATT | 15700
AAGTTTTTGTATGAGCATGTGACAGTAAATGCGAAC | 9420

Some of these lines once more (study 2):
Oligonucleotide | RBNS enrichment (R)
GGCUAAUUUUGUAUUUUUAGUAGAGACGGGGUUUCUCCAUGUUGGUAAGGCUGAUCUCAAACUCCCAACCUCAGGUGAUCUGCCUGCCUCGGCCUCCCAAAGUGCUGGGA | 1.18
CUUGUCGUGCUUCAAUGCAUGCCAUUUGUCACUUACCAUACUUCACCAUGGCCGAGCUUCAUGUCACAUGGCCUGGCGAUUGUGCUUGUUCACACUGGGGCCAGGAUUUU | 0.47
CUGCCCGAGAAUCAGCUUGAAUUCCCACUUCUGCUUGUUGGCCCCAGCUCUGGCUUUGCAUCCUUACUCUCAUGCCCAGUUGCUUAGAGAGAACGGGAGAACAGGUCUAA | 1.11
AGUACUACCUUGCCAGGGACUCAGUCAGGGGACUUUGGGAGAAAGACUUGAUAGCCAGGCUGACUGGGUUCUAGGCAGGCCCUCUGGAAAGGUAGCUCACCUAACAAAGC | 0.196
UACCAUUUCAUGGUGGUCGUUGGGUCCGCCUAAAGGAUUUGAGCGUUUGCCAUUGCAAGCAUAGUGCUGUGUCAUCCUGGUCCAUGUAGGACUGGUGCUAACCACCUGCC | 0.221
UUUCAGUACAAAUGAAAGAAAAGUGGUUUUAAUCAGUGAUUUAGUGGACCUUGAGCAACUGUGCACGCUUCACUCUAAUAGCAUGGUUUGGCCAGUGUAUUAGCUCUCAA | 0.709
